Results from different studies.
Numbered parts are unrelated; each lists some results of a single study. Positions count from the first letter of the parent shown.

Series 1 — technique: protein-binding microarray; form: double-stranded DNA, one strand shown; sample: in vitro; tested at: 250 nM; notes: 60-bp whole probe; added: salmon DNA 0.4 mg/ml; reference: random background probes; reading: higher = stronger binding; all sequences stand within: GCCTAGCAC … GTCTTGATTCGCTTGACGCTGCTG
Target: Interferon regulatory factor 7, full length, phosphomimetic (IRF7, Homo sapiens, UniProt Q92985, residues 1-503, S101K/S471D/S472D/S475D/S476D/S477D/S483D/S484D/S487D)
Residues (chain): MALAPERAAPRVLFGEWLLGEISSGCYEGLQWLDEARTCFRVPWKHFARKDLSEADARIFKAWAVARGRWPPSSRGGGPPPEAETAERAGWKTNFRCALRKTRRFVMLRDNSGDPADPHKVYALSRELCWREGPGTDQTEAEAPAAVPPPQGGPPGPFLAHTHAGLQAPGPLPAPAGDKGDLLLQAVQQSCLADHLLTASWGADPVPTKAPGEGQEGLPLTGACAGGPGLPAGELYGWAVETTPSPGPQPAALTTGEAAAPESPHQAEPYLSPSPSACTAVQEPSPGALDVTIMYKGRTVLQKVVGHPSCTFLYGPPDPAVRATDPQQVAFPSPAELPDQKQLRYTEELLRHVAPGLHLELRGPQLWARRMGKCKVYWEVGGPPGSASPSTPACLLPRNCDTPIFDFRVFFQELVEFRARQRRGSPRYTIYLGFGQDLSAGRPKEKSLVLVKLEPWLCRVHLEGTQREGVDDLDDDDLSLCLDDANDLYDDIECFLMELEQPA
Oligonucleotide	log fluorescence
GCCGAACTGAGTATCGAGACGTGCTAG	0.101 z-score
TTAGCTTCCGGTTTCGGTTAGTGCTAG	8.14 z-score
GCCGGTTTCGGTATCGGGACGTGCTAG	11 z-score
GACGGTACCCTTATCCTGACGTGCTAG	0.0515 z-score
GACGGTAACCTTATCCTGACGTGCTAG	-0.00882 z-score
TCACCTCTACCTCCTGGGACTGTGCTA	-0.016 z-score
GACGGTTTCGACACTGGAGACGTGCTA	4.33 z-score
TTAGAACTGAGTTCCGATTAGTGCTAG	0.869 z-score
TGAGGACTGGGTATCGGTTAGTGCTAG	0.205 z-score
TTATATCTCAGTTTCGATTAGTGCTAG	8.45 z-score
TTAGGTCTCGGTATCGGCTAGTGCTAG	2.27 z-score
TTAGATCTCAGTCTCGACTAGTGCTAG	0.682 z-score
GACGATTTCACTATCGAGACGTGCTAG	0.496 z-score
GACGGTTTCGTCACTGGGGACGTGCTA	1.97 z-score
TTAGATTTCGGGTATCGATCAGTGCTA	1.11 z-score
GACGGTTACGACTATCGGGACGTGCTA	-0.293 z-score

Series 2 — technique: RNA Bind-n-Seq; form: RNA; sample: in vitro; tested at: 365 nM; reference: no-protein control; reading: higher = stronger binding
Target: RNA binding protein fox-1 homolog 2, RRM domain, GST-SBP tag (RBFOX2, Homo sapiens, UniProt O43251-10, residues 100-194)
Notes: natural RNA segment, single round, ends assumed
All sequences stand within: GGGAGUUCUACAGUCCGACGAUC … UGGAAUUCUCGGGUGCCAA
Target sequence (chain): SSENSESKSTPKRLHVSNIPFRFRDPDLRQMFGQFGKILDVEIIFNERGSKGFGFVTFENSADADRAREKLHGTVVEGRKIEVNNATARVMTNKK
Oligonucleotide	RBNS enrichment (R)
UAUAAAAUGAUGGCUUGGAAAAGCAGGCUAGUCUAACCAUGGUGCUAUUAUUAGGCUUGCUUGUUACACACACAGGUCUAAGCCUAGUAUGUCAAUAAAGCAAAUACUUA	0.337
AGGUGUUAUUCUUAAUGUUUCUGUCAAAGCUUCUUAAAAAUCUUCACUUGGUUUCAGCCAUAGUUCACCUUCCCUGUUCCAGGUUUAUUUAAUUCCAAAGGUGAGAGUUG	0.321
UGCUUUUUGGGACCAUCACUGAGAGUCAGGAGUUUUACUGCCUGUAGCAAUGGCCAGAGCCUCUGGCCCCUCACCCACCAUGGACCAGCCCAUUGGCCGAGCUCCUGGGG	0.281
CCCUCCCCAGGUGGGCAGGGCGGAGGGAGCCUCAGCCUCCUUAGACUGACCCCUCAGGCCCCUAGGCUGGGGGGUUGUAAAUAACAGCAGUCAGGUUGUUUACCAGCCCU	0.226
CUUCCUCCUGGCUGCACAGACACCUCUGCUUGGCCACAGCUUUGCUCUUUGGUCCUCAGGCCACCAGACCCCUCACAGCAUGGCCCUUGGCUCUUCCUGCACUGCCCUCA	1.62
CUGGAAUGGUGUUUUGUCAGACUUCCAAAUCCUGGAAGGACACAGUGAUGAAUGUACUAUGUCUGAACAUAGAAACUCGGGCUUGAGUGAGAAGAGCUUGCACAGCCAAC	18.6
AGUGAAAUGAAUAUACAUGUCUAUGGACUUAAUAUCAUGCCCAGAUAUGAAGACCUCGUUCAACUUUGCAUAACACGUAGAGGUAAUAGCUAGGUGAUAGACAUUUUCAA	0.309
GGCCACUCUGUGAAUACAUGAUCUUGCAAUGUUGGGUUAUUCCAGCCAAAGACAUUUCAAGUGCCUGUAACUGAUUUGUCCAUAUUUAUAAACACUGAUCUGGAAAUUGG	0.539
GCCUCUUUCCCCUACUAGCCCCAUGUGACACAUAUUUUUCACACUAUGUGGCAUCAACCAGUGCCAUUACCUCCUGUGGCACCAUAGAGCCCAAUCUCAGGGCAGACAUU	0.619
GUUCCCUUUAACUGUGCCUCAGUGUGGGUUAGGGAACAAUUUUGUUAUUGUAUUAAGUUUAUUCAGUUAAUUCACUUGAGGAACUAACCAGUUUUUACUUUCUGUCUAGA	0.326
UCCUCAUGGUUCAGAUAGCUAUUUCUGAAUGUAUAUUUCAUGGCUUCAAAGCAGCUACUCAACUAACACCUUGCAGUCUUGGAGUUAGUAUAAUACUGCUAAGAGAAGCC	0.238
GUUUAACAGUUCCUUUACAUGUGUAGUAUUUGAGGAAAAAAAUCAAUAAACAGUUGAUCUCGUGCAUUGGAAGUCCCUUCGCCAUCAUCUGUCUUCAUGCCCACUUCACU	0.777

Series 3 — technique: RNA Bind-n-Seq; form: RNA; sample: in vitro; tested at: 90 pmol; notes: 4-mer, random 30-nt RNA, single round; reference: input library; reading: higher = stronger binding
Target: ATP-dependent RNA helicase DDX3X, helicase core (DDX3X, Homo sapiens, UniProt O00571, residues 132-607)
UniProt O00571, sequence (132-607, looked up): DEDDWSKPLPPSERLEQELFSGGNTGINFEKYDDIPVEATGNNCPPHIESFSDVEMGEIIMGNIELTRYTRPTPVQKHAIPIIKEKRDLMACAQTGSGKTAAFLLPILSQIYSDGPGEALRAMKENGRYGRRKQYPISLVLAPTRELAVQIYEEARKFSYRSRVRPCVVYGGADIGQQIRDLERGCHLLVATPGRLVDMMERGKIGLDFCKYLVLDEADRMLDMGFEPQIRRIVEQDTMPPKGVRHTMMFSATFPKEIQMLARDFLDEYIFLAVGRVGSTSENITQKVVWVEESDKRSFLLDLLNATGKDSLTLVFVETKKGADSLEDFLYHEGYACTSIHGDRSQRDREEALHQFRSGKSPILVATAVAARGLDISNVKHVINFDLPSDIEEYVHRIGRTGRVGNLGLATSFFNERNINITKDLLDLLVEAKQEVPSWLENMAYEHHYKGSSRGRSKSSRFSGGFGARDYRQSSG
Added: 3 µM iPr-DMDA-PatA, 2 mM ADP, 2 mM phosphate
Oligonucleotide	4-mer enrichment
AAAC	1.42 fold
AACG	1.23 fold
GGAC	0.94 fold
CGCU	0.722 fold
CAUG	0.841 fold
AUCU	0.973 fold
UGUG	0.909 fold
GAGU	1.19 fold
CCUA	1.02 fold
CUAG	0.904 fold
GGCG	0.778 fold
GCUU	0.714 fold
UGUA	1.08 fold

Series 4 — technique: protein-binding microarray; form: double-stranded DNA, one strand shown; sample: in vitro; tested at: not given; reading: higher = stronger binding
Target: Protein C-ets-1 (ETS1, Homo sapiens, UniProt P14921, residues 1-441, K379A, full length assumed)
UniProt P14921, sequence (whole entry, unmodified, looked up): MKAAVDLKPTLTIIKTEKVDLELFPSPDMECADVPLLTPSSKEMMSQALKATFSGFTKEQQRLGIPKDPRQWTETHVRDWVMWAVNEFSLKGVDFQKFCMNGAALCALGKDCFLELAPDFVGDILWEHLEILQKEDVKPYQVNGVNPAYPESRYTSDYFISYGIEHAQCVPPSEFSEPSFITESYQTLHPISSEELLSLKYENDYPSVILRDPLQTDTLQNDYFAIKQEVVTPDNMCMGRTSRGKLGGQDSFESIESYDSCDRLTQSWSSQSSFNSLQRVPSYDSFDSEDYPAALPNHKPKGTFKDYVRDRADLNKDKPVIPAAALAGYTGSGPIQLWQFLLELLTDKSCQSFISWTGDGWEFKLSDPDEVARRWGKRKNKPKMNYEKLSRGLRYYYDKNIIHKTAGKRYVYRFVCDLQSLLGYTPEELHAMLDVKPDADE
Notes: k-mer, scored over probes, only values ≥0.25
Oligonucleotide	E-score
GTAATTAC	0.3
ACCGGTGC	0.456
CCTATCCC	0.275
CACCCCGG	0.26
ATACCACC	0.295
GTACCGGA	0.419
GGTACTAC	0.252
CACATGTA	0.267
CATTAAAC	0.267
GGTGGGGA	0.347
CGGATGTA	0.318
ATGACCGG	0.328
CGGTACCG	0.483
CAATCCCG	0.337
AACATGTC	0.274
TACCGCCA	0.304
ACCCGCCC	0.387
GACCGGGA	0.456
ACAACCGG	0.349
CGGCGTCC	0.268
CGACAATC	0.261
GACACAAA	0.294
AACCGGGT	0.3
ACGGCCGG	0.273
CTTCCGCA	0.275

Series 5 — technique: aptamer microarray, sandwich; form: DNA with 2'F-ANA; sample: in vitro; tested at: 200 nM; added: Cy3 exosite-II aptamer, 400 nM; reading: higher = stronger binding; oligonucleotide: GGTTGGTGTGGTTGG
Target: Prothrombin, mature alpha-thrombin (F2, Homo sapiens, UniProt P00734)
Notes: whole 15-mer aptamer, many near background
Modification	mean fluorescence intensity
2'F-ANA at 1 2 3 4 7 11 14	95.6 a.u.
2'F-ANA at 2 4 6 7 9 14 15	76.3 a.u.
2'F-ANA at 1 2 6 8 10 11 12 13 15	101 a.u.
2'F-ANA at 1 6 7 9 11 14	61.9 a.u.
2'F-ANA at 1 5 8 10 13	40.5 a.u.
2'F-ANA at 1 2 4 5 7 9 11 14 15	65.9 a.u.
2'F-ANA at 2 9 11 12 14 15	159 a.u.
2'F-ANA at 1 3 4 5 6 7 9 11 13 15	80.5 a.u.
2'F-ANA at 1 2 3 6 10 12	83.8 a.u.
2'F-ANA at 1 3 6 11 12 14	99.4 a.u.
2'F-ANA at 2 7 8 11 12 13	665 a.u.
2'F-ANA at 3 6 8 10 11 13 14 15	287 a.u.
2'F-ANA at 2 4 8 9 11 14 15	107 a.u.
2'F-ANA at 5 10 15	60.9 a.u.
2'F-ANA at 1 5 6 9 10 11 12 13	45.3 a.u.
2'F-ANA at 1 5 6 9 10 11 13	132 a.u.
2'F-ANA at 1 5 6 8 9 11 12 13 14 15	49.9 a.u.
2'F-ANA at 1 2 3 5 6 10 11 14 15	49 a.u.
2'F-ANA at 4 5 7 9 14 15	43.2 a.u.
2'F-ANA at 1 3 4 5 7 8 9 11 13 14	46.6 a.u.
2'F-ANA at 2 3 7 8 11 12	1040 a.u.
2'F-ANA at 1 2 3 5 13 14 15	45.2 a.u.
2'F-ANA at 3 6 7 8 15	1050 a.u.
2'F-ANA at 1 4 5 8 13 14	47.1 a.u.
2'F-ANA at 8 9 11 12	793 a.u.

Series 6 — target: CCNA2, cyclin fold, Cln2 fusion (human); technique: yeast growth competition, sequencing; sample: yeast; notes: strong parent motif; reference: not given; reading: higher = stronger binding
Starting sequence: CDC25A docking peptide (human); PPHRRRLLFACSP
Variant	normalised enrichment score
PPHRRRLLFACSS [P13S]	1.98
FPHRRRLLFACSP [P1F]	1.57
PPHRRRLLFAMSP [C11M]	2.08
PPHRRRLLFAFSP [C11F]	2.19
PPHRRFLLFACSP [R6F]	1.47
PPHRRRLLFACSK [P13K]	1.33
PPHRRNLLFACSP [R6N]	1.46
PPHRRRLLFACIP [S12I]	2.75
PQHRRRLLFACSP [P2Q]	2.7
SPHRRRLLFACSP [P1S]	2.21
PPHRRRLLFACNP [S12N]	2.99
PEHRRRLLFACSP [P2E]	1.85
PPHRRRLSFACSP [L8S]	2.88
PPHRRRLLFGCSP [A10G]	3.06
PPHRNRLLFACSP [R5N]	-0.102
PPHRRRLDFACSP [L8D]	4.42
PPHRPRLLFACSP [R5P]	0.0228
PPHRIRLLFACSP [R5I]	1.77
PPHIRRLLFACSP [R4I]	2.2
PPHRRRLLFSCSP [A10S]	2.69
GPHRRRLLFACSP [P1G]	2.11
PDHRRRLLFACSP [P2D]	1.79
PPHRRRLRFACSP [L8R]	1.75
PPHRRRLNFACSP [L8N]	4.04
PPHRRRLLFACSW [P13W]	1.27

Repeated from above (series 1):
Oligonucleotide	log fluorescence
GCCGAACTGAGTATCGAGACGTGCTAG	0.101 z-score
TTAGCTTCCGGTTTCGGTTAGTGCTAG	8.14 z-score
GCCGGTTTCGGTATCGGGACGTGCTAG	11 z-score
GACGGTACCCTTATCCTGACGTGCTAG	0.0515 z-score
GACGGTAACCTTATCCTGACGTGCTAG	-0.00882 z-score
TCACCTCTACCTCCTGGGACTGTGCTA	-0.016 z-score
GACGGTTTCGACACTGGAGACGTGCTA	4.33 z-score
TTAGAACTGAGTTCCGATTAGTGCTAG	0.869 z-score
TGAGGACTGGGTATCGGTTAGTGCTAG	0.205 z-score
TTATATCTCAGTTTCGATTAGTGCTAG	8.45 z-score
TTAGGTCTCGGTATCGGCTAGTGCTAG	2.27 z-score
TTAGATCTCAGTCTCGACTAGTGCTAG	0.682 z-score
GACGATTTCACTATCGAGACGTGCTAG	0.496 z-score
GACGGTTTCGTCACTGGGGACGTGCTA	1.97 z-score
TTAGATTTCGGGTATCGATCAGTGCTA	1.11 z-score
GACGGTTACGACTATCGGGACGTGCTA	-0.293 z-score
